Results pooled from the literature.
Lines come from different studies, so protocols differ.
4'-phosphopantetheinyl transferase PptT: 4'-phosphopantetheinyl transferase PptT (Mycobacterium tuberculosis, UniProt O33336)
UniProt O33336, sequence (whole entry, looked up): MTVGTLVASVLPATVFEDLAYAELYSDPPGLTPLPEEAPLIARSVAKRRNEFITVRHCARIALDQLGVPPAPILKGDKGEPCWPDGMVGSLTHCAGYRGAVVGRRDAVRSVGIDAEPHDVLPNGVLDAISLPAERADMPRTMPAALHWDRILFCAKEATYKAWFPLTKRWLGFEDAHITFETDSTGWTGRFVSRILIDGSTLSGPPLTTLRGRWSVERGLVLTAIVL
UniProt Q86U86, sequence (whole entry, unmodified, looked up): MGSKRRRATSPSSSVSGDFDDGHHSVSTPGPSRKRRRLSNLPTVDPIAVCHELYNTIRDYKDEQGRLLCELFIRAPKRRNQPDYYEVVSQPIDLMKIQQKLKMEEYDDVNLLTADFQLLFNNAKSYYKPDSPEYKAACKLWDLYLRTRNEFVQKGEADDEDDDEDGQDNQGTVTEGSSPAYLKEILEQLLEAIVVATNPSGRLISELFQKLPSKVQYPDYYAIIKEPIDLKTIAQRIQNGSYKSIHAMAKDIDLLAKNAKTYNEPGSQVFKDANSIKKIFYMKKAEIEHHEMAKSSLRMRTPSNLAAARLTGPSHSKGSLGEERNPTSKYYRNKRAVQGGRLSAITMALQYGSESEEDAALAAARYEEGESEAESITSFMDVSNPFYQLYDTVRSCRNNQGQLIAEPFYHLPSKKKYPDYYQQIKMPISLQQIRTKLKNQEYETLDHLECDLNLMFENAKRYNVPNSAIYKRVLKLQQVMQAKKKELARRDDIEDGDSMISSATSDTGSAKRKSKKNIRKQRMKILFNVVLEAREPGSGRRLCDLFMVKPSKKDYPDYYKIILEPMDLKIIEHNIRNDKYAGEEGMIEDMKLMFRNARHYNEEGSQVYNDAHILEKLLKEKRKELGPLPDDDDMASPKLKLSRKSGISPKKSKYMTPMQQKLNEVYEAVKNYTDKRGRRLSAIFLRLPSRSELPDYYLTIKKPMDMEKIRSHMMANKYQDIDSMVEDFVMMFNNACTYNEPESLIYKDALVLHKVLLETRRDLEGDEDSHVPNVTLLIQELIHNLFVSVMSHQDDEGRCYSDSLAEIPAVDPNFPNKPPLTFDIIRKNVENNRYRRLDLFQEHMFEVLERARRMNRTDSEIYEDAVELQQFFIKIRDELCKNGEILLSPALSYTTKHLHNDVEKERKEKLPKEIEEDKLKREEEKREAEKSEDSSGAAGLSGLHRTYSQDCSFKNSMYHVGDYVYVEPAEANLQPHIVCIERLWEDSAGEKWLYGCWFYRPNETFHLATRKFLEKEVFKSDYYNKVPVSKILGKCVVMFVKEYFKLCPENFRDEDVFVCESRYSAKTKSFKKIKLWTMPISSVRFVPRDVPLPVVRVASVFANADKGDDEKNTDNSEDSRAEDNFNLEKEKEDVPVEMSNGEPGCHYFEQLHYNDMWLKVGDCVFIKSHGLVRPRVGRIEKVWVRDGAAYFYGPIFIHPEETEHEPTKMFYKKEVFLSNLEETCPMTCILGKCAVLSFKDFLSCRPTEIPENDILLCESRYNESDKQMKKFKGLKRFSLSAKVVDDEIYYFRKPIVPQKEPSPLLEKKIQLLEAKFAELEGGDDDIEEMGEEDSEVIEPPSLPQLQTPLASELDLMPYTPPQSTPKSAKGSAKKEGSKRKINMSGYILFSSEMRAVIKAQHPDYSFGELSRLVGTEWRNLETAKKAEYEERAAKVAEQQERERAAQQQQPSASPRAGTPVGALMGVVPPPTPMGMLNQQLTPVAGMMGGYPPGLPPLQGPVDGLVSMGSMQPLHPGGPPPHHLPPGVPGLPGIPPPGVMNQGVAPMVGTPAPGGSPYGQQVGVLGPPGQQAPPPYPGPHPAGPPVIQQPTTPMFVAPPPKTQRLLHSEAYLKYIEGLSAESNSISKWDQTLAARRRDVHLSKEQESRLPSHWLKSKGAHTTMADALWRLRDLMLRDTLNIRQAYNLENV
UniProt P25929, sequence (whole entry, looked up): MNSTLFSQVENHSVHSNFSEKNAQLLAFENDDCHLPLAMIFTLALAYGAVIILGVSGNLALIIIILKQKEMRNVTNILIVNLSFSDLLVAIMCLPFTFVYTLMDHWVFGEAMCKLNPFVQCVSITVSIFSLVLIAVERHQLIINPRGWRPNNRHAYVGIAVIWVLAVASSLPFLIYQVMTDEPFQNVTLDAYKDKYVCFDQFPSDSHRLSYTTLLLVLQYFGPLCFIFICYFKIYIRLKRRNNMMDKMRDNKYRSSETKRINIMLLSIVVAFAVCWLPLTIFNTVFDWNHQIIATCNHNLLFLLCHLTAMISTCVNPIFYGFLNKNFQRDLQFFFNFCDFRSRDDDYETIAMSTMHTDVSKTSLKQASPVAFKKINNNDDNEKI
UniProt P23458, sequence (whole entry, looked up): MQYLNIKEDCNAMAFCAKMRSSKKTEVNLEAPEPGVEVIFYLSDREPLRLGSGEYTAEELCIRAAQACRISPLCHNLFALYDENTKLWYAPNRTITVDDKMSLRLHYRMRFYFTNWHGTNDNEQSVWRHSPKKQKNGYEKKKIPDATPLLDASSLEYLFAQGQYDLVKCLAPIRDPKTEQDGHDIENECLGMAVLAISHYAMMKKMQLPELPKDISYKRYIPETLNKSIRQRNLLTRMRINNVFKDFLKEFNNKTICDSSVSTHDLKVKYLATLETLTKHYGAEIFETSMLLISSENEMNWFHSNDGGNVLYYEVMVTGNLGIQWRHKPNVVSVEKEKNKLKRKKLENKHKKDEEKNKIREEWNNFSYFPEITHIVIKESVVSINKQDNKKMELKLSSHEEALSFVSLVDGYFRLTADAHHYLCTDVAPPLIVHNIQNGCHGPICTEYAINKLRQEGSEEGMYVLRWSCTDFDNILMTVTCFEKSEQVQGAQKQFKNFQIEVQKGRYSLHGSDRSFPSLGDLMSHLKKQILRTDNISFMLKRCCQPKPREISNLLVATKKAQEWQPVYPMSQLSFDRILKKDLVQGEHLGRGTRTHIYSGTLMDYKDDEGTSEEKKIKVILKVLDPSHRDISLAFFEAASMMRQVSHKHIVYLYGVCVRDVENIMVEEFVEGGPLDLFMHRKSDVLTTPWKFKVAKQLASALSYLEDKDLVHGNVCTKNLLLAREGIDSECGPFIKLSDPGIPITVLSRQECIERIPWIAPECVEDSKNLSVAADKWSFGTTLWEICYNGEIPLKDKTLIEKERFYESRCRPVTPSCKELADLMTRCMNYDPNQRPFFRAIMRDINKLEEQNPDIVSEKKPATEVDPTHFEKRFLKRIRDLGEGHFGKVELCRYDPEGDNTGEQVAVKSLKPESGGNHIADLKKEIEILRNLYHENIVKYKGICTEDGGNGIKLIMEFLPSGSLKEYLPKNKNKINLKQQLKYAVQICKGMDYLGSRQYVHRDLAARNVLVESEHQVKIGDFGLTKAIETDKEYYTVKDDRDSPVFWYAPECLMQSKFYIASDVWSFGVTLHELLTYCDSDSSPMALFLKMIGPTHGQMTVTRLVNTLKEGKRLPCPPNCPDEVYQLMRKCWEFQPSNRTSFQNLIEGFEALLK
UniProt Q86UE8, sequence (whole entry, looked up): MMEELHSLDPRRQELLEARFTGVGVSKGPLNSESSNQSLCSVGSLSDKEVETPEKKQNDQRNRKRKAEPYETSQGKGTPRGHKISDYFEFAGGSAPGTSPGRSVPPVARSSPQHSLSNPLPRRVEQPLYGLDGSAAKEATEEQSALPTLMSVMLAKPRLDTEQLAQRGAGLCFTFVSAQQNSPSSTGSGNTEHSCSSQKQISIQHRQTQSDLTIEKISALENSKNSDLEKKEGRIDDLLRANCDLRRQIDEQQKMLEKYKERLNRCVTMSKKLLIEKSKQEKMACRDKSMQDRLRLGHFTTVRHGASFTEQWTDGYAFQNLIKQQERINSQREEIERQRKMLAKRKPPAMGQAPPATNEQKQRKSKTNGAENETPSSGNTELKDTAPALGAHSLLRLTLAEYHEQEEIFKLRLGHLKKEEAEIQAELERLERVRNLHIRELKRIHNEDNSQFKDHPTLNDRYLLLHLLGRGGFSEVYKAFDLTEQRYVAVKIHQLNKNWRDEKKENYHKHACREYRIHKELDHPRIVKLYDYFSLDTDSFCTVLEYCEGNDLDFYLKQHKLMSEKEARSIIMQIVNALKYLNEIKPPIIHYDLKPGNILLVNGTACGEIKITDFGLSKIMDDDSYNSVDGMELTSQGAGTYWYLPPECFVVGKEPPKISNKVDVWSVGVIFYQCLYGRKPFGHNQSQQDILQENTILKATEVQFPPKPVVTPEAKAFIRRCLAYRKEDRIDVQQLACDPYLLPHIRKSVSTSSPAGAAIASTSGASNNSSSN
UniProt P21728, sequence (whole entry, looked up): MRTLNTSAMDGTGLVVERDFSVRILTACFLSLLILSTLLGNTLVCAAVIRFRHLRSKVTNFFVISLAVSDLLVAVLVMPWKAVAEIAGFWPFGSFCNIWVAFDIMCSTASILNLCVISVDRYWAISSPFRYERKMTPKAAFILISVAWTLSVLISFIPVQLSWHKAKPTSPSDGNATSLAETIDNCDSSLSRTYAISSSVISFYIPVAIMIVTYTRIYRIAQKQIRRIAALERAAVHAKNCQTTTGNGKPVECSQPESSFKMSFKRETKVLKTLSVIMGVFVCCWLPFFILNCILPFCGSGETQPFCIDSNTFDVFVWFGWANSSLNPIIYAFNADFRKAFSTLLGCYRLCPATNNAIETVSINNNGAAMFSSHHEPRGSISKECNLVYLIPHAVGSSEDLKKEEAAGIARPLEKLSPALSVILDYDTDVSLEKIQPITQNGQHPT

COc1ccc(Nc2nn3c(-c4ccccc4)ccnc3c2C(=O)Nc2ccc(Cl)cc2)cc1 gave a viability of 19.9% (A549; cell growth or viability, MTT; 100 µg/mL, 48 h, serum-free).
[2H]c1c([2H])c([C@]2([2H])CCCN2C(=O)C(C)(C)Oc2ccc3cn[nH]c3c2)c([2H])c([2H])c1C([2H])([2H])[2H] gave a remaining binding of 100% (5'-AMP-activated protein kinase catalytic subunit alpha-2 (PRKAA2, Homo sapiens, UniProt P54646); binding, competition with immobilised ligand; 1 µM).
The inhibition of N.N.[Cl][Pt][Cl] is reported as 100% (OCI-Ly3; cell growth or viability, ATP luminescence; 10 µM, 72 h).
With CC(C)CC(=O)OC[C@H]1O[C@@](C#N)(c2ccc3c(N)ncnn23)[C@H](O)[C@@H]1O the inhibition was 2% (Neuropeptide Y receptor type 1 (NPY1R, Homo sapiens, UniProt P25929); cell-free assay; 20 µM).
O=c1c2cc(Cl)ccc2[nH]c(=S)n1Cc1ccncc1 has an IC50 of 1.62 µM (4'-phosphopantetheinyl transferase PptT; enzyme activity, inhibitor, FP).
With c1cncc([C@@H]2CCCN2)c1 the inhibition was -11% (D(1A) dopamine receptor (DRD1, Homo sapiens, UniProt P21728); ligand displacement; 50 µM).
CCN(CC)CCCC[C@H](NC(=O)[C@H](CC(C)C)NC(=O)[C@H](C)NC(=O)[C@H](Cc1ccccc1)NC(=O)c1ccc(C(C)(C)C)cc1)C(=O)N[C@@H](CO)C(=O)OC gave a ΔTm of 0.24 °C (Protein polybromo-1, BD2 (PBRM1, Homo sapiens, UniProt Q86U86); thermal stability, DSF; 25 µM).
With Nc1ncc(-c2nc(N3CCOCC3)nc(N3CCOCC3)n2)c(C(F)F)n1 the remaining binding was 0.05% (Tyrosine-protein kinase JAK1, JH2 (JAK1, Homo sapiens, UniProt P23458); binding, competition with immobilised ligand; 10 µM).
With C#Cc1n[nH]c2c(-c3cn(C(C)c4ccccn4)c(=O)[nH]c3=O)cc(F)cc12 (stereo not drawn) the inhibition was 11.3% (3-phosphoinositide-dependent protein kinase 1 (PDPK1, Homo sapiens, UniProt O15530); enzyme activity, inhibitor; 1 µM).
With O=c1c2cc(Cl)ncc2[nH]c(=S)n1Cc1cccnc1 the IC50 was 4.93 µM (4'-phosphopantetheinyl transferase PptT; enzyme activity, inhibitor, FP).
The remaining binding of Cc1nn(C)cc1-c1nc2c(N3CCN(Cc4ccc(Cl)cc4)CC3)c(Cl)cnc2[nH]1 is reported as 67% (Mitogen-activated protein kinase kinase kinase 19 (MAP3K19, Homo sapiens, UniProt Q56UN5); binding, competition with immobilised ligand; 1 µM).
With COc1ncccc1-c1cnn2ccc(N3CCN(C(=O)OC(C)C)CC3)nc12 the remaining binding was 72% (Serine/threonine-protein kinase tousled-like 2 (TLK2, Homo sapiens, UniProt Q86UE8); binding, competition with immobilised ligand; 1 µM).

Excerpt of the above:
With c1cncc([C@@H]2CCCN2)c1 the inhibition was -11% (D(1A) dopamine receptor (DRD1, Homo sapiens, UniProt P21728); ligand displacement; 50 µM).
